# Assay results collected from several papers.
# Every numbered part comes from another study and shows a few of its results, in no order. Several values in a cell are separate wells, animals, samples, runs or records.
# Chain of UniProt Q99640 (whole entry, looked up): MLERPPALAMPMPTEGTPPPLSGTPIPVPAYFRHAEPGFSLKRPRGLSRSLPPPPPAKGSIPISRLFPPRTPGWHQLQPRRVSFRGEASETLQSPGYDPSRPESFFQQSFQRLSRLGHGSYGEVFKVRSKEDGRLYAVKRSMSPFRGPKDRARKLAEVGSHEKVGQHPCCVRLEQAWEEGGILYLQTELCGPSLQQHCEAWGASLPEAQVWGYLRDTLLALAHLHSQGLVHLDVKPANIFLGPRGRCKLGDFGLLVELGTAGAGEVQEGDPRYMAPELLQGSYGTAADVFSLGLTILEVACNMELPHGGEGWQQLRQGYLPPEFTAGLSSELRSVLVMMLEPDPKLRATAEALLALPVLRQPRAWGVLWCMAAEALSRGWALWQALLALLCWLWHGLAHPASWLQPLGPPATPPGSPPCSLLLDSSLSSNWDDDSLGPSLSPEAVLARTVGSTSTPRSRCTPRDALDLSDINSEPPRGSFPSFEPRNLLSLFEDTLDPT

# Series 1
# Structure (SMILES): Cn1cc(-c2cccc(CN3CCC4(CC3)COc3c4ccc4c3CN(C3CCC(=O)NC3=O)C4=O)c2)cn1 (stereo not drawn)
# Target: CRBN/Zinc finger protein Helios (Homo sapiens, UniProt Q96SW2+Q9UKS7)
# Chain of UniProt Q96SW2 (whole entry, looked up): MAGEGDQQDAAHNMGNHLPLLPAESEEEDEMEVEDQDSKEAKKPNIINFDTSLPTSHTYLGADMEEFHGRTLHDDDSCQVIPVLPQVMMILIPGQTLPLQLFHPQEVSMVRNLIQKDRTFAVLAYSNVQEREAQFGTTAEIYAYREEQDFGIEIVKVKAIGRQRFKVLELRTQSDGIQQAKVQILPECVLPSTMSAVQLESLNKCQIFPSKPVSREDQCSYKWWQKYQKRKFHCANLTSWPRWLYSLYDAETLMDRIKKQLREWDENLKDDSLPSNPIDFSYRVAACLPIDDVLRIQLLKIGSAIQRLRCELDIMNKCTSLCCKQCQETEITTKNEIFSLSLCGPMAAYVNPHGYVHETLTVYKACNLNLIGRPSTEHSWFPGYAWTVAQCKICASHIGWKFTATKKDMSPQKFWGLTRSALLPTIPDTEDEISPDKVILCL
# Chain of UniProt Q9UKS7 (whole entry, looked up): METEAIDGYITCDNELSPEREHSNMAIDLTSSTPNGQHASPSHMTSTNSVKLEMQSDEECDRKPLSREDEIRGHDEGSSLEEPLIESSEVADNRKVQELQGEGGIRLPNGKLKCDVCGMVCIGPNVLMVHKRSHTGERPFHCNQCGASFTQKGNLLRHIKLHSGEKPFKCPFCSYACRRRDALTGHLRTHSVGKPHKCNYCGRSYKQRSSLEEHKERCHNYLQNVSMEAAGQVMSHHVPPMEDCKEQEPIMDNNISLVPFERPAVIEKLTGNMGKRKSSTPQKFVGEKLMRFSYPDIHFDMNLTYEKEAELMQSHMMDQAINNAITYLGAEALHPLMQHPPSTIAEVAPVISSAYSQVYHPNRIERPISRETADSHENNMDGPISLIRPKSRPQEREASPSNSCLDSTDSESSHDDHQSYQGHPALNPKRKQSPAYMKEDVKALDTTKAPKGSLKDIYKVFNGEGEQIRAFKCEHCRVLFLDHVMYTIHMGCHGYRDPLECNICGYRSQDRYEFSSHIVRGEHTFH
# Action: degrader
# Method: HiBiT
# Cells: HEK293
setting,protein remaining [%]
12.35 nM,19
37.04 nM,16
0.4572 nM,73.1

# Other studies, line by line
Compound,target or system,assay,test system,setting,quantity,value
Cc1ccc(O)c(C)c1-c1cnc2[nH]c(-c3cnc(N4CCC(CN5CCN(c6ccc7c8c(cccc68)C(=O)N7C6CCC(=O)NC6=O)CC5)CC4)nc3)cc2c1C#N (racemic),"Membrane-associated tyrosine- and threonine-specific cdc2-inhibitory kinase (PKMYT1, Homo sapiens, UniProt Q99640)","binding, HTRF",,1.37 nM,inhibition,6.41% and 4.58%
C=CCN1C(=O)C(O)(C(=O)O)Oc2cc(F)ccc21 (stereo not drawn),Arabidopsis thaliana,hypocotyl length,Col-0,"12.5 µg/mL, 7 days, seed germination, dark",inhibition,13%
COc1cc(C(=O)OCCCN2CCCN(CCCOC(=O)c3cc(OC)c(OC)c(OCc4ccc([N+](=O)[O-])cc4)c3)CC2)cc(OC)c1OC,,,"male CD-1 mouse, dorsal root ganglia","subcutaneous, dose not given, 24 h",tissue concentration,4.25 ng/mL

# For quick reference, copied from above (other studies, line by line):
Compound,target or system,assay,test system,setting,quantity,value
C=CCN1C(=O)C(O)(C(=O)O)Oc2cc(F)ccc21 (stereo not drawn),Arabidopsis thaliana,hypocotyl length,Col-0,"12.5 µg/mL, 7 days, seed germination, dark",inhibition,13%
